Assay results pooled from the literature.
ALK L1196M: ALK tyrosine kinase receptor (ALK, Homo sapiens, UniProt Q9UM73, L1196M)
ALK C1156Y: ALK tyrosine kinase receptor (ALK, Homo sapiens, UniProt Q9UM73, C1156Y)
ALK: ALK tyrosine kinase receptor (ALK, Homo sapiens, UniProt Q9UM73)

| SMILES | target | effect on | technique | tested at | relative to | remaining binding [%] |
| --- | --- | --- | --- | --- | --- | --- |
| C=CC(=O)N1CCCC(n2c(=O)c3ncccc3n(Cc3ccc(Oc4ccccc4)cc3)c2=O)C1 (stereo not drawn) | ALK L1196M | cell-free assay | competition with immobilised ligand | 1 µM |  | 100 |
| C=CC(=O)N1CCc2ccc(-n3c(=O)ccc4cnc5ccc(-c6cnn(C)c6)cc5c43)cc21 | ALK C1156Y |  | KINOMEscan | 1 µM | DMSO control | 100 |
| Nc1ncc2c(n1)-c1c([nH]c3ccc(C4=CCOCC4)cc13)CCC2 | ALK | binding | competition with immobilised ligand | 1 µM |  | 97 |
| CN1CCN(Cc2ccc(NC(=O)c3cccc(C#Cc4cnc(N)c5ncccc45)c3)cc2C(F)(F)F)CC1 | ALK | cell-free assay | competition with immobilised ligand | 50 nM |  | 81 |
| CNC1C[S+]2CC[S+]3CC[S+](C1)[Ru-4]321([N]=C=S)[n]2c3ccc(OC)cc3c3c4c(c5cc(F)c[n+]1c5c32)C(=O)NC4=O (stereo not drawn) | ALK C1156Y |  | KinomeScan | 0.1 µM | untreated | 83 |
| CC(C)=CC1OC(C)(C)C2C=C3C(=O)C(Cl)=CC(O)C3C3C(O)C4OC4C(=O)C132 (stereo not drawn) | ALK C1156Y | cell-free assay | competition with immobilised ligand | 10 µM |  | 73 |
| Cc1cnc2nc1Nc1cccc(c1)COC/C=C/COCc1cc(ccc1OCCN1CCOCC1)N2 | ALK | binding |  | 0.1 µM |  | 74 |
| COc1c(Cl)cccc1Nc1c(-c2ccncc2C#C[C@@]2(C)CCCN2C(=O)/C=C/CN(C)C)[nH]c2c1C(=O)NCC2 | ALK L1196M | cell-free assay | competition with immobilised ligand | 3 µM |  | 83 |
| CNC(=O)C1CCN(c2cc(C)c(F)cc2NC(=O)c2ccc(-c3cc(O)ccc3C)c(C)c2)CC1 | ALK L1196M | binding | competition with immobilised ligand | 1 µM |  | 100 |
